Measurements pooled from the literature.
Compare with care: the assays were run in different laboratories. ± marks the error that the study gave.
PRSS1: Serine protease 1 (PRSS1, Bos taurus, UniProt P00760)
MC4R: Melanocortin receptor 4 (MC4R, Homo sapiens, UniProt P32245)
Oprk1: Kappa-type opioid receptor (Oprk1, Mus musculus, UniProt P33534)
Urease: Urease (Canavalia ensiformis, UniProt P07374)

Compound	target or system	assay	system	conditions	measurement	result
O=C(N[C@@H](Cc1ccc(F)cc1)C(=O)CCl)OCc1ccccc1	PRSS1	–	–	–	Ki	> 200 µM
CCCc1cc(C(=O)[C@H]2C=CN([C@@H]3O[C@H](COP(=O)(O)OP(=O)(O)OC[C@H]4O[C@@H](n5cnc6c(N)ncnc65)[C@H](O)[C@@H]4O)[C@@H](O)[C@H]3O)C=C2C(N)=O)ccn1	inhA (Mycobacterium leprae, UniProt Q9CBM1)	–	–	–	Ki	0.011 ± 0.006 µM
CC[C@H](C)[C@H](NC(=O)CN)C(=O)N[C@H](C(=O)N[C@@H](CC(N)=O)C(=O)N[C@H](C(=O)N[C@@H](CC(C)C)C(=O)N[C@@H](CCC(N)=O)C(=O)N[C@@H](CCC(N)=O)C(=O)N[C@@H](Cc1ccc(O)cc1)C(=O)N[C@@H](Cc1ccc(O)cc1)C(=O)N[C@H]1CSSC[C@@H]2NC(=O)[C@H](CCC(N)=O)NC(=O)[C@H](CCC(N)=O)NC(=O)CNC(=O)[C@H](CCC(N)=O)NC(=O)[C@H]([C@@H](C)O)NC(=O)[C@H](CO)NC(=O)[C@@H]3CSSC[C@H](NC(=O)[C@H](CCC(N)=O)NC(=O)CNC(=O)CNC(=O)[C@H](CCC(N)=O)NC(=O)[C@H](C(C)C)NC(=O)[C@H](CCC(N)=O)NC1=O)C(=O)N[C@@H](C)C(=O)N[C@@H](C(C)C)C(=O)N[C@@H](CC(C)C)C(=O)N[C@@H](CO)C(=O)N[C@@H](CSSC[C@@H](C(=O)N[C@@H](CCC(N)=O)C(=O)N[C@@H](CCC(N)=O)C(=O)N[C@@H](CCC(N)=O)C(=O)N[C@@H](CCC(N)=O)C(N)=O)NC2=O)C(=O)N[C@@H](CC(C)C)C(=O)N1CCC[C@H]1C(=O)N[C@@H](CCC(N)=O)C(=O)N[C@@H](CCC(=O)O)C(=O)N[C@@H](CCC(=O)O)C(=O)N[C@@H](CCC(N)=O)C(=O)N[C@@H]([C@@H](C)CC)C(=O)NCC(=O)N[C@@H](CCC(N)=O)C(=O)N3)[C@@H](C)O)[C@@H](C)CC	MC4R	–	HEK-293T transfected	2 h, 37 °C, with: Eu-NDP-MSH	Ki	> 5 µM
CC(C)C[C@H](NC(=O)[C@@H]1CCCN1C(=O)[C@@H](N)CCCCN)C(=O)N[C@@H](CCC(=O)O)C(=O)N[C@H](CN[C@@H](Cc1ccccc1)C(=O)N[C@@H](CCCNC(=N)N)C(=O)N[C@H](C(=O)O)C(C)C)Cc1ccccc1	Plasmepsin I (PMI, Plasmodium falciparum, UniProt Q7KQM4)	–	–	–	Ki	5.5 ± 0.7 µM
CC1=C[C@H](O/C=C2/C(=O)O[C@H]3c4ccccc4C[C@@H]23)OC1=O (racemic)	RMS3 (Lathyrus oleraceus, UniProt A0A109QYD3)	cell-free assay, inhibitor	–	–	Ki	0.23 µM
Cc1cc(O)cc(C)c1C[C@H](N)C(=O)N[C@H](C)C(=O)N[C@@H](Cc1ccccc1)C(=O)N[C@@H](Cc1ccccc1)C(N)=O	Oprk1	ligand displacement, radioligand	–	cell membranes	Ki	0.003 µM
CC[C@H](C)[C@H](NC(=O)[C@H](CCC(=O)O)NC(=O)[C@H](Cc1ccc(N)cc1)NC(=O)[C@@H](C)NC(=O)[C@@H](N)Cc1ccc(O)cc1)C(=O)N[C@H](C(=O)NCC(N)=O)[C@@H](C)CC	Oprk1	ligand displacement, radioligand	–	cell membranes	Ki	> 1 µM
Cc1cc2c(cc1Cl)Cc1c(C(=O)NC3CCCCC3)nn(-c3ccc(Cl)cc3Cl)c1-2	Cannabinoid receptor 2 (Cnr2, Mus musculus, UniProt P47936)	ligand displacement, radioligand	–	–	Ki	0.384 µM
N=C(N)NCCC[C@@H]1NC(=O)[C@H](CCCCNC(=O)CC[C@H](NC(=O)CCOCCOCCOCCOCCNC(=O)CN2CCN(CC(=O)O)CCN(CC(=O)O)CCN(CC(=O)O)CC2)C(=O)NCCCC[C@@H]2NC(=O)[C@@H](Cc3ccccc3)NC(=O)[C@H](CC(=O)O)NC(=O)CNC(=O)[C@H](CCCNC(=N)N)NC2=O)NC(=O)[C@@H](Cc2ccccc2)NC(=O)[C@H](CC(=O)O)NC(=O)CNC1=O [indium-111 labelled]	–	–	female athymic nude mice, blood	intravenous, 3 µCi, 1 h, U-87 MG glioma xenograft	tissue uptake	0.51 ± 0.09 %ID/g
[2H]C([2H])(C)N1CCN(C2=Nc3cc(Cl)ccc3Nc3ccccc32)CC1	5-hydroxytryptamine receptor 2C (HTR2C, Homo sapiens, UniProt P28335)	ligand displacement, radioligand	–	–	Ki	0.28 µM
C[C@H](NC(=O)[C@H](CCC(=O)O)NC(=O)[C@H](CO)NC(=O)[C@H](C)NC(=O)[C@H](CO)NC(=O)CSCCNC(=O)CCNC(=O)[C@H](O)C(C)(C)COP(=O)(O)OP(=O)(O)OC[C@H]1O[C@@H](n2cnc3c(N)ncnc32)[C@H](O)[C@@H]1OP(=O)(O)O)C(N)=O	ard1, with Naa15 (Schizosaccharomyces pombe, UniProt Q9UTI3)	competitive with acetyl-CoA	–	–	Ki	1.1 ± 0.1 µM
O=C(CCCC[C@@H]1SC[C@@H]2NC(=O)N[C@@H]21)NCCCCCCCCN1[C@H]2[C@H](O)[C@@H](O)[C@H](O[C@@H]3OC[C@@H](O)[C@H](O)[C@H]3O)C[C@H]21 (stereo partly drawn)	Exo-1,4-beta-xylosidase xlnD (xlnD, Emericella nidulans, UniProt Q5BAS1)	covalent inhibitor	Aspergillus nidulans	pH 4.5, ambient, with: 4MU-β-D-xyloside	Ki	53.3 µM
CC(=O)N[C@@H](CCCNC(=N)N)C(=O)N[C@@H](Cc1ccc(O)cc1)C(=O)N[C@@H](CCCN/C(N)=N/C(=O)NCCCCN)C(=O)N[C@@H](CC(C)C)C(=O)N[C@@H](CCCNC(=N)N)C(=O)N[C@@H](Cc1ccc(O)cc1)C(N)=O	Neuropeptide Y receptor type 2 (NPY2R, Homo sapiens, UniProt P49146)	ligand displacement, radioligand	–	–	Ki	> 5 µM
COc1c(OCCOCCOCCOCCOCCOCCOCCOCCOc2cccc(C(=O)C3CCN(CCc4ccc(F)cc4)CC3)c2OC)cccc1C(=O)C1CCN(CCc2ccc(F)cc2)CC1	5-hydroxytryptamine receptor 2A (HTR2A, Homo sapiens, UniProt P28223)	ligand displacement, radioligand	–	–	Ki	0.0044 µM
CNCP(=O)(O)O	Urease	enzyme activity, inhibitor, absorbance	–	pH 7	Ki	204 µM
COc1ccc2cc(/C=C/c3cc[n+](Cc4ccc(F)cc4)cc3)ccc2c1	Cholinesterase (BCHE, Equus caballus, UniProt P81908)	–	–	–	Ki	0.115 µM
COc1ccc(CC[C@H]2OC(=O)[C@@H]3CCCCN3C(=O)C(=O)C(C)(C)COC(=O)/C=C/CCN(C)C(=O)[C@H](CC(C)C)N(C)C(=O)[C@@H]3CCCN3C(=O)[C@H](Cc3ccccc3)N(C)C(=O)[C@H](c3ccccc3)NC(=O)CCC(=O)Nc3cccc2c3)cc1OC	Equilibrative nucleoside transporter 1 (SLC29A1, Homo sapiens, UniProt Q99808)	–	–	–	Ki	0.156 ± 0.033 µM
CC[C@H](C)[C@H](NC(=O)CN)C(=O)N[C@H](C(=O)N[C@@H](CC(N)=O)C(=O)N[C@H](C(=O)N[C@@H](CC(C)C)C(=O)N[C@@H](CCC(N)=O)C(=O)N[C@@H](CCCCN)C(=O)N[C@@H](Cc1ccc(O)cc1)C(=O)N[C@@H](Cc1ccc(O)cc1)C(=O)N[C@H]1CSSC[C@@H]2NC(=O)[C@H](CCCCN)NC(=O)[C@H](C)NC(=O)CNC(=O)[C@H](C)NC(=O)[C@H]([C@@H](C)O)NC(=O)[C@H](CO)NC(=O)[C@@H]3CSSC[C@H](NC(=O)[C@H](CCCNC(=N)N)NC(=O)CNC(=O)CNC(=O)[C@H](CCCNC(=N)N)NC(=O)[C@H](C(C)C)NC(=O)[C@H](CCCNC(=N)N)NC1=O)C(=O)N[C@@H](C)C(=O)N[C@@H](C(C)C)C(=O)N[C@@H](CC(C)C)C(=O)N[C@@H](CO)C(=O)N[C@@H](CSSC[C@@H](C(=O)N[C@@H](CCCNC(=N)N)C(=O)N[C@@H](CCCNC(=N)N)C(=O)N[C@@H](CCCCN)C(=O)N[C@@H](CCCCN)C(N)=O)NC2=O)C(=O)N[C@@H](CC(C)C)C(=O)N1CCC[C@H]1C(=O)N[C@@H](CCCCN)C(=O)N[C@@H](CCC(=O)O)C(=O)N[C@@H](CCC(=O)O)C(=O)N[C@@H](CCC(N)=O)C(=O)N[C@@H]([C@@H](C)CC)C(=O)NCC(=O)N[C@@H](CCCCN)C(=O)N3)[C@@H](C)O)[C@@H](C)CC	MC4R	ligand displacement in cells	–	–	Ki	0.131 µM
CC[C@H](C)[C@H](NC(=O)[C@@H]1CSSC[C@H](NC(=O)[C@H](Cc2ccc(O)cc2)NC(=O)CN)C(=O)N[C@@H](CO)C(=O)N[C@@H](CCCNC(=N)N)C(=O)N[C@@H](CO)C(=O)N[C@@H](Cc2ccc(O)cc2)C(=O)N2CCC[C@H]2C(=O)N2CCC[C@H]2C(=O)N[C@@H](C(C)C)C(=O)N1)C(=O)N1CCC[C@H]1C(=O)N[C@@H](CC(=O)O)C(N)=O	PRSS1	enzyme activity, inhibitor	–	–	Ki	0.11 µM
CN(Cc1ccccc1)CP(C)(=O)O	Urease	inhibitor	–	pH 7	Ki	> 1000 µM
CC[C@H](C)[C@H](NC(=O)CN)C(=O)N[C@H](C(=O)N[C@@H](CC(N)=O)C(=O)N[C@H](C(=O)N[C@@H](CC(C)C)C(=O)N[C@@H](CCC(N)=O)C(=O)N[C@@H](CCCCN)C(=O)N[C@@H](Cc1ccc(O)cc1)C(=O)N[C@@H](Cc1ccc(O)cc1)C(=O)N[C@H]1CSSC[C@@H]2NC(=O)[C@H](CCCCN)NC(=O)[C@H](CCCNC(=N)N)NC(=O)CNC(=O)[C@H](CCCNC(=N)N)NC(=O)[C@H]([C@@H](C)O)NC(=O)[C@H](CO)NC(=O)[C@@H]3CSSC[C@H](NC(=O)[C@H](CCC(N)=O)NC(=O)CNC(=O)CNC(=O)[C@H](CCC(N)=O)NC(=O)[C@H](C(C)C)NC(=O)[C@H](CCCNC(=N)N)NC1=O)C(=O)N[C@@H](C)C(=O)N[C@@H](C(C)C)C(=O)N[C@@H](CC(C)C)C(=O)N[C@@H](CO)C(=O)N[C@@H](CSSC[C@@H](C(=O)N[C@@H](CCCNC(=N)N)C(=O)N[C@@H](CCCNC(=N)N)C(=O)N[C@@H](CCCCN)C(=O)N[C@@H](CCCCN)C(N)=O)NC2=O)C(=O)N[C@@H](CC(C)C)C(=O)N1CCC[C@H]1C(=O)N[C@@H](CCC(N)=O)C(=O)N[C@@H](CCC(=O)O)C(=O)N[C@@H](CCC(=O)O)C(=O)N[C@@H](CCC(N)=O)C(=O)N[C@@H]([C@@H](C)CC)C(=O)NCC(=O)N[C@@H](CCCCN)C(=O)N3)[C@@H](C)O)[C@@H](C)CC	MC4R	ligand displacement in cells	–	–	Ki	0.147 µM
O=C(O)C1CC1C(=O)c1ccc(Cl)c(Cl)c1 (stereo not drawn)	Kynurenine 3-monooxygenase, residues 1-394 (Saccharomyces cerevisiae, UniProt P38169)	enzyme activity, 3-hydroxykynurenine formation HPLC	–	–	Ki	0.074 ± 0.014 µM
CN(C)CP(=O)(O)O	Urease	enzyme activity, inhibitor, absorbance	–	pH 7	Ki	21 µM
C[n+]1ccc(C(=O)NC2CCC3(O)C4Cc5ccc(O)c6c5C3(CC[N+]4(C)CC3CC3)C2O6)cc1 (stereo not drawn)	Oprk1	ligand displacement, radioligand	–	cell membranes	Ki	0.0201 µM

A few entries again:
Compound	target or system	assay	system	conditions	measurement	result
CC1=C[C@H](O/C=C2/C(=O)O[C@H]3c4ccccc4C[C@@H]23)OC1=O (racemic)	RMS3 (Lathyrus oleraceus, UniProt A0A109QYD3)	cell-free assay, inhibitor	–	–	Ki	0.23 µM
Cc1cc(O)cc(C)c1C[C@H](N)C(=O)N[C@H](C)C(=O)N[C@@H](Cc1ccccc1)C(=O)N[C@@H](Cc1ccccc1)C(N)=O	Oprk1	ligand displacement, radioligand	–	cell membranes	Ki	0.003 µM
CC[C@H](C)[C@H](NC(=O)[C@H](CCC(=O)O)NC(=O)[C@H](Cc1ccc(N)cc1)NC(=O)[C@@H](C)NC(=O)[C@@H](N)Cc1ccc(O)cc1)C(=O)N[C@H](C(=O)NCC(N)=O)[C@@H](C)CC	Oprk1	ligand displacement, radioligand	–	cell membranes	Ki	> 1 µM
Cc1cc2c(cc1Cl)Cc1c(C(=O)NC3CCCCC3)nn(-c3ccc(Cl)cc3Cl)c1-2	Cannabinoid receptor 2 (Cnr2, Mus musculus, UniProt P47936)	ligand displacement, radioligand	–	–	Ki	0.384 µM
